Experimental data gathered from unrelated publications.
Numbered parts are unrelated; each lists some results of a single study.

Series 1
Target: Histone acetyltransferase KAT6A, both winged helices, GST fusion (KAT6A, Homo sapiens, UniProt Q92794, residues 1-181)
Technique: protein binding microarray
Form: double-stranded DNA, one strand shown
Medium: in vitro
Tested at: not given
Notes: 8-mer, flanks averaged, mean of 2 arrays, mostly near background
Baseline: not given
Direction: higher = stronger binding
Residues (chain): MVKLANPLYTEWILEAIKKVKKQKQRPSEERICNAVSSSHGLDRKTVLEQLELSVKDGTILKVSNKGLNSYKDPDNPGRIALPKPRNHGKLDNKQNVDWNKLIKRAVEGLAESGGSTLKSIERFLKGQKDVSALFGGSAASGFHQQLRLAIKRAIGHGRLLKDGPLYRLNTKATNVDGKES
| Sequence | E-score |
| --- | --- |
| CTACGCGA | 0.17 |
| TGGCGCAA | 0.242 |
| CATTCATA | -0.0403 |
| GTGCGCTA | 0.162 |
| CTGCACCC | -0.103 |
| TAGAGACA | -0.221 |

Series 2
Target: Interferon regulatory factor 7, full length, phosphomimetic (IRF7, Homo sapiens, UniProt Q92985, residues 1-503, S471D/S472D/S475D/S476D/S477D/S483D/S484D/S487D)
Technique: protein-binding microarray
Form: double-stranded DNA, one strand shown
Medium: in vitro
Tested at: 2200 nM top
Notes: 60-bp whole probe
With: salmon DNA 0.4 mg/ml
Baseline: random background probes
Direction: higher = stronger binding
All sequences stand within: GCCTAGCAC … GTCTTGATTCGCTTGACGCTGCTG
Target sequence (chain): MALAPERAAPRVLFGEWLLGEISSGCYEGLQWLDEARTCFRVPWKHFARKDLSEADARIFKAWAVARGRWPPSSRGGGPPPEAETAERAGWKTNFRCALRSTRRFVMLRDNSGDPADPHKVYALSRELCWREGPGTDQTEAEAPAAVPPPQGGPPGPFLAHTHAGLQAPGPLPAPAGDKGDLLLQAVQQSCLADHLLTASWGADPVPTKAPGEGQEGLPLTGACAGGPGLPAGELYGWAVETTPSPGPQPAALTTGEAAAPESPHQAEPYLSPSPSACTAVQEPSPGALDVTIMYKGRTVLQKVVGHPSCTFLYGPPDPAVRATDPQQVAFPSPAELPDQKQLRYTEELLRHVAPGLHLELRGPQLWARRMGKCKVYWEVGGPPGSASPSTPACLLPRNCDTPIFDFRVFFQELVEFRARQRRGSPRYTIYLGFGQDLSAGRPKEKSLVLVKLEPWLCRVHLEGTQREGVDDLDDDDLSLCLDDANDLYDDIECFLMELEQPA
| Sequence | fitted relative affinity |
| --- | --- |
| AAGACCATCCTATGTAGATGTGTGCTA | 0.353 z-score |
| GACGATATCAGTATAGAGACGTGCTAG | 0.00768 z-score |
| CACTCTTTCCTCACCATACTGTGCTAG | 2.74 z-score |
| TCACCGTTTCTTCTAGAACTGTGCTAG | 2.11 z-score |
| TCAATTGTGGCTTTTTAACTGTGCTAG | 0.335 z-score |
| GACGAACGGAGACTGGAGACGTGCTAG | -0.458 z-score |
| TTAGAAGTGAGTATCGATTAGTGCTAG | -0.359 z-score |

Other studies, line by line
Pou5f1 POU domain: POU domain, class 5, transcription factor 1, POU domain (Pou5f1, Mus musculus, UniProt P20263, residues 131-289)
UniProt P20263, sequence (131-289, looked up): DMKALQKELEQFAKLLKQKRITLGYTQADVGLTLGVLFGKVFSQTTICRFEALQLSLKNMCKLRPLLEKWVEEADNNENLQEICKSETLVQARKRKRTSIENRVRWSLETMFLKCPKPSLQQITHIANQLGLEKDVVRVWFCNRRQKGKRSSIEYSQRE
| Substance | target | assay | test system | conditions | how to read | endpoint | result |
| --- | --- | --- | --- | --- | --- | --- | --- |
| GAGTCGTCTCGTCAGCACCTTGTAATCCGTAGAGCACTCAGGTC | Pou5f1 POU domain | Spec-seq | double-stranded DNA, one strand shown, in vitro | not given, whole probe, mean of replicates | baseline: not given, lower = stronger binding | relative binding energy | 0.548 ln ratio |
| PhoQ, residues 284 288 289 292 302 303 ASVMEA | PhoP, residues 12 14 15 18 19 IFFTR (Escherichia coli, UniProt P23836) | Sort-seq, measured: YFP reporter | E. coli | PhoQ-PhoP variant library, with: 10 µM Mg2+ | baseline: high Mg2+ state, higher = stronger signaling | fold induction | 15.8 |
| GAGTCGTCTCGTCAGCACTAGTTAATCCGTAGAGCACTCAGGTC | Pou5f1 POU domain | Spec-seq | double-stranded DNA, one strand shown, in vitro | not given, whole probe, mean of replicates | baseline: not given, lower = stronger binding | relative binding energy | 0.249 ln ratio |
